Experimental data collected from several papers.
Protocols differ between the studies behind these lines.
Target: Ephrin type-A receptor 2 (EPHA2, Homo sapiens, UniProt P29317)
UniProt P29317, sequence (whole entry, looked up): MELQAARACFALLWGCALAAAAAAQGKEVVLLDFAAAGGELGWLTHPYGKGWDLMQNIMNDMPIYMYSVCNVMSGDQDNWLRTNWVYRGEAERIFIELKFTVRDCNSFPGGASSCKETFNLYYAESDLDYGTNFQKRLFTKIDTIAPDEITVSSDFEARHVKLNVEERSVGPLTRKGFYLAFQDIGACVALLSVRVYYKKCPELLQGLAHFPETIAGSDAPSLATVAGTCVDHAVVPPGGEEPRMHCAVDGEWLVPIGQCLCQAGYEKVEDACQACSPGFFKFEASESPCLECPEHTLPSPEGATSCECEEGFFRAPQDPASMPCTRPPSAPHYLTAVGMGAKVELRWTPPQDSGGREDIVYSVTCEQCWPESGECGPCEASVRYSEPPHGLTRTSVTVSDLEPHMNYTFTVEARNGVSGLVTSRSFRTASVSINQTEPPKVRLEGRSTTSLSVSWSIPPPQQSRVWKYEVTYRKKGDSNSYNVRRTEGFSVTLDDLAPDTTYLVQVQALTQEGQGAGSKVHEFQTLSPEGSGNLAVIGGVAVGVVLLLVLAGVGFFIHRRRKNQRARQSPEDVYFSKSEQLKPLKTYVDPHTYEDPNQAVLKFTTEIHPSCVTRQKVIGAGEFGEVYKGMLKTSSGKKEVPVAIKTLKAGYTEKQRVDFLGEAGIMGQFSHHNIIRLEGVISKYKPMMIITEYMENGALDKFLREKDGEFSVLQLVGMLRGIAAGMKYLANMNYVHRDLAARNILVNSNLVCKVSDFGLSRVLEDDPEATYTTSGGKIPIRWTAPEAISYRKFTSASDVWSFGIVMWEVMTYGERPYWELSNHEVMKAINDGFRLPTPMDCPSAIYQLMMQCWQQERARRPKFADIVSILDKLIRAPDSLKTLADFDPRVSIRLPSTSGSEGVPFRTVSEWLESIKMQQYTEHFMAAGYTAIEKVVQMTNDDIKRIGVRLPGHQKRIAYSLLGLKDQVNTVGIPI

| SMILES | test | conditions | how to read | measurement | value |
| --- | --- | --- | --- | --- | --- |
| CCOC(=O)[C@@H]1Cc2c(cc([N+](=O)[O-])cc2[N+](=O)[O-])[C@H](O)[C@]12C(=O)Nc1ccc(Br)cc12 | binding, competition with immobilised ligand | 0.1 µM |  | remaining binding | 100% |
| Nc1ccc(/C=C/C(=O)N2CCc3c(oc4c(-c5ccc(F)cc5)cc(-c5ccc(C(=O)N6CCC(F)(F)CC6)cn5)cc34)C2)cn1 | binding, competition with immobilised ligand | 1 µM |  | remaining binding | 100% |
| CCn1nc(Cl)c2c1-c1cnc(N)c(c1)O[C@H](C)c1cc(F)ccc1-c1nn(C)cc1C2 | kinase activity, inhibitor |  | reference: IC50 EPHA2 over IC50 ALK | selectivity ratio | 185 fold |
| N[C@H](C(=O)N1CCCC1)C1CCN(c2nccc3c(-c4ncc(Cl)cc4Cl)cccc23)CC1 | kinase activity, inhibitor | 10 µM, added: ATP 1 mM |  | inhibition | 11.7% |
| C[C@H](NCc1ccc(-c2ccc(C(F)(F)F)cc2)cc1)C(N)=O | cell-free assay, competition with immobilised ligand | 1 µM |  | inhibition | 15% |
| CC(C)[C@H]1NC(=O)C[C@H]2/C=C/CCSSC[C@@H](NC1=O)C(=O)N[C@H](Cc1cccc3ccccc13)C(=O)NCC(=O)O2 | enzyme activity, inhibitor | 10 µM |  | inhibition | -1.1% |
| CS(C)(=O)=Nc1ccc(-c2ccc(-c3nc4cc(O[C@@H]5CO[C@H]6[C@@H]5OC[C@H]6O)[nH]c4cc3F)cc2)cc1 | enzyme activity, inhibitor | 10 µM |  | inhibition | 8% |
| O=C1NC(=O)c2c1c1cc(F)c[n+]3c1c1c2c2cc(O)ccc2[n]1[Ru-4]312([N]=C=S)[S+]3CC[S+]1CC[S+]2CC3 (centres unmarked) | enzyme activity | 100 nM, human enzyme, added: 10 µM ATP | reference: untreated | remaining activity | 99% |

Repeated from above:
| SMILES | test | conditions | how to read | measurement | value |
| --- | --- | --- | --- | --- | --- |
| CCn1nc(Cl)c2c1-c1cnc(N)c(c1)O[C@H](C)c1cc(F)ccc1-c1nn(C)cc1C2 | kinase activity, inhibitor |  | reference: IC50 EPHA2 over IC50 ALK | selectivity ratio | 185 fold |
